# Experimental data from different studies.
# Every numbered part comes from another study and shows a few of its results, in no order. Positions count from the first letter of the parent shown.
# Chain of UniProt P14416 (whole entry, looked up): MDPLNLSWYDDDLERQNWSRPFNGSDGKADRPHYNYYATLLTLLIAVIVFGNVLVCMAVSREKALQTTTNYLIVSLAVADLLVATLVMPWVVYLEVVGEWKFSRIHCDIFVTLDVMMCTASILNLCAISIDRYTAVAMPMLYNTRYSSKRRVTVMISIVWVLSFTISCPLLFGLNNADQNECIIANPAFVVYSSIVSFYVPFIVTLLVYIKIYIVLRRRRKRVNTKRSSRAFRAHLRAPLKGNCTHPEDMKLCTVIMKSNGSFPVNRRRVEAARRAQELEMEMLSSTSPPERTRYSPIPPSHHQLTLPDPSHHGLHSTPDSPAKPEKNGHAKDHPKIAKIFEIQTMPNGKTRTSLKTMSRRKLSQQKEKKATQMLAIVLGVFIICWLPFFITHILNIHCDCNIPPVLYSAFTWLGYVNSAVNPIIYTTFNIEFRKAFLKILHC

# Study 1 — Substitution: L91S; method: DHFR PCA, deep sequencing; sample: yeast; baseline: wild-type fitted maximum; reading: higher = stronger binding
# Target: ABI1, truncated, D143A, DHFR fusion (Arabidopsis thaliana)
# Setting: methotrexate growth selection, single substitutions
# Parent: PYL1, truncated, DHFR fusion (Arabidopsis thaliana); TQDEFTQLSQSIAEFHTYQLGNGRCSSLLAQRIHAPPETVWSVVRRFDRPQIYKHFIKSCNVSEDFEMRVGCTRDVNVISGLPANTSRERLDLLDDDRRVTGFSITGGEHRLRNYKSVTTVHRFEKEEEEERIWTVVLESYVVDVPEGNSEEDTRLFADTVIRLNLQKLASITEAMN
together with,relative binding score [%]
(+)-ABA 1.4 µM,11.9
(+)-ABA 0.032 µM,-1.77
(+)-ABA 58 µM,19.8
(+)-ABA 17 µM,-3.16
(+)-ABA 4.8 µM,-10.5
(+)-ABA 0.11 µM,-0.798

# Study 2 — method: protein-binding microarray; molecule type: double-stranded DNA, one strand shown; sample: in vitro; tested at: 2540 nM top; setting: 60-bp whole probe; together with: salmon DNA 0.4 mg/ml; baseline: random background probes; reading: higher = stronger binding; constant ends, left off below: GCCTAGCAC … GTCTTGATTCGCTTGACGCTGCTG
# Target: Interferon regulatory factor 3, full length, phosphomimetic (IRF3, Homo sapiens, UniProt Q14653, residues 1-427, S386D/S396D/S398D/S402D/T404D/S405D)
# Residues (chain): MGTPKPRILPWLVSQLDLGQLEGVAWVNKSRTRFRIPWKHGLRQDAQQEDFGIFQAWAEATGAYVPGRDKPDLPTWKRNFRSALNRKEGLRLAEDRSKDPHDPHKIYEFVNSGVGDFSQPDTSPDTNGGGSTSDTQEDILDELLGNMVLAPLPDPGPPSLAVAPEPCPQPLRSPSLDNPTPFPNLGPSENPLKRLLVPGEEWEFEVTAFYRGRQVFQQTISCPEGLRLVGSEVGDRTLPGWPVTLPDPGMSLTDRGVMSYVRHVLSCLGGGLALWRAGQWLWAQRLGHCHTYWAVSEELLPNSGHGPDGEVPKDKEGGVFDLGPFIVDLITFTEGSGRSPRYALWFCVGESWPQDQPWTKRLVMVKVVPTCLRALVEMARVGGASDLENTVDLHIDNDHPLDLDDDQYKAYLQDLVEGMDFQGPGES
Strand,fitted relative affinity [z-score]
GGGTCTTGCAGTATGGAAAGGTGCTAG,-0.299
TCAAGTTTGTATATATTACTGTGCTAG,0.0776
TTAGGTAACCTACTGCTTTAGTGCTAG,0.629
TTAGAATTGAGACTGGATTAGTGCTAG,-0.422
GACGGTTTCCTACTGCCGACGTGCTAG,6.01
GACGGACTCGGACTGGGGACGTGCTAG,-0.328
GACGGTATCGGACTAGGGACGTGCTAG,2.07
TAGCGTATATTCCCTAGAATAGTGCTA,-0.209

# Study 3 — effect on: binding; method: phage display NGS; molecule type: peptide; setting: panning round 2; baseline: input library
# Target: UDP-N-acetylglucosamine--peptide N-acetylglucosaminyltransferase 110 kDa subunit (OGT, Homo sapiens, UniProt O15294)
# Target sequence (O15294 1-1046): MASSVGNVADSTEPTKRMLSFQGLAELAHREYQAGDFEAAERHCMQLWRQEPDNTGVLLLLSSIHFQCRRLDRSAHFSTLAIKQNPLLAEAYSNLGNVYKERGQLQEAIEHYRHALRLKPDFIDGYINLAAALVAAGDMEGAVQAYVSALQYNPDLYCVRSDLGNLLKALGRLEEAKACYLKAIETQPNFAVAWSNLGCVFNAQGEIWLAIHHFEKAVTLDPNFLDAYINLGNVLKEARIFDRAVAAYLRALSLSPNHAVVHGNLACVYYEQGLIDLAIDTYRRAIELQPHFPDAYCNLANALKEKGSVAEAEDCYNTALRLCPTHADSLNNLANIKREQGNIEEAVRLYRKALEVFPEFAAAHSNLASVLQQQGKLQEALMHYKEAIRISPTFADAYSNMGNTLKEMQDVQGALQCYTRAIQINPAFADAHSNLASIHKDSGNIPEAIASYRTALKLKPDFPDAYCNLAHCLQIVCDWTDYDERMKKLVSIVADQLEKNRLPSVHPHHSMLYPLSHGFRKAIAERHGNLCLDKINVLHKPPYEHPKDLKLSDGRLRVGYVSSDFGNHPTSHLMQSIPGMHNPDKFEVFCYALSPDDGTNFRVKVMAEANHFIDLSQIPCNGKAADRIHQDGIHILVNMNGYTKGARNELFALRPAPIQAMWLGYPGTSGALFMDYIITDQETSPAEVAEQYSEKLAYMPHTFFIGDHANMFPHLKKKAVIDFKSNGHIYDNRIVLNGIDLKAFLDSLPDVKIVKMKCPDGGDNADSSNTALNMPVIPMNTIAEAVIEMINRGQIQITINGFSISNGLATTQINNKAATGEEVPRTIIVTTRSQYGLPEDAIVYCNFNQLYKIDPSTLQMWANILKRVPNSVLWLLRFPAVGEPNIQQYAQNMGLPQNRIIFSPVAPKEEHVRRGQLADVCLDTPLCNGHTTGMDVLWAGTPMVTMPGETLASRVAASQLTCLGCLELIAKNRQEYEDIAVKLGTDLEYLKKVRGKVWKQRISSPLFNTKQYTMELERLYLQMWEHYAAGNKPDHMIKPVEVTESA
Molecule,minimum log2 enrichment ratio
MWSPTVPPKYIIKYK,2.97
HSWDHIWHTTYDNDK,2.38
AFSPFFPVYSIEIRR,3.29
SSWPWTMHMHQPSYH,2.33
EYTPEYQIHYQVVQS,4.15
VQAQFRPVYQIYSAP,2.15
QAQFMPVYQMQSMAR,2.07
SINYKLQPKYQIFFP,3.15
YGPHNHFHPHDHMP,2.56
VDTWHQRHHHQFSVD,2.39
EHYHMHDIMKNQHSH,3.19
TVTPKYPPQYQILV,3.44
QSDFLPKYQLDLFSY,3.7
WVLVPPFYQIVPSNR,6.95
ANFMPYYEIMVSDP,1.61
HTEAHVNRHRHEHQI,2.48
HWQHVHHADPSDAVK,3.23
HVPRQHYAMYPHQYR,2.43
QDLMPYYPIQYYQER,4
SDRTPYTPRYQISY,2.97
YDFLPMYQIRFYDYN,2.34
SYVHHPPHWWDKHVS,2.62
RTFFPMYEIVIGMT,2.88
HYDHQHRFPQLAKSA,2.02
DSGMHWMHRHMHGWE,3.18

# Study 4 — method: RNAcompete; molecule type: RNA; sample: in vitro; tested at: 20 nM; setting: 7-mer, probes averaged, single round; baseline: mean of 7-mers; reading: higher = stronger binding
# Target: PABPC1L2, full length, GST fusion (mouse, UniProt A0ABA7IW68)
# Residues (chain): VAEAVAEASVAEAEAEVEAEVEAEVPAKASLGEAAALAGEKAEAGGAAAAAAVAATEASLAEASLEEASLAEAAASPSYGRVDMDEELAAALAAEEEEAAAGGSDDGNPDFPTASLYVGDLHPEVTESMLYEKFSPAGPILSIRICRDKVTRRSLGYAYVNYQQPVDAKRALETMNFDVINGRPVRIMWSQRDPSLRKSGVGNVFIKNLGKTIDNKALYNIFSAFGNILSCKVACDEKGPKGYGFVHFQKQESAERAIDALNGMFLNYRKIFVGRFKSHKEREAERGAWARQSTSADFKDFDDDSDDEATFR
Strand,7-mer Z-score
CCUGCGU,-0.26
UAGGCUG,0.00436
CCCCGGG,-0.436
GGUGCCG,-0.0844
AGGCGGG,0.615
UACUGUC,-0.327
GUAAGCU,-0.264
GGCAAUG,0.138

# Study 5 — method: competition protein-binding microarray; molecule type: double-stranded DNA, one strand shown; sample: in vitro; tested at: 2 µM; together with: Pho4 competitor, 0.05 µM; reading: higher = stronger binding; constant ends, left off below: … GTCTTGATTCGCTTGACGCTGCTG
# Target: Centromere-binding protein 1, full length, His-tagged (CBF1, Saccharomyces cerevisiae, UniProt P17106, residues 1-351)
# Chain of UniProt P17106 (whole entry, looked up): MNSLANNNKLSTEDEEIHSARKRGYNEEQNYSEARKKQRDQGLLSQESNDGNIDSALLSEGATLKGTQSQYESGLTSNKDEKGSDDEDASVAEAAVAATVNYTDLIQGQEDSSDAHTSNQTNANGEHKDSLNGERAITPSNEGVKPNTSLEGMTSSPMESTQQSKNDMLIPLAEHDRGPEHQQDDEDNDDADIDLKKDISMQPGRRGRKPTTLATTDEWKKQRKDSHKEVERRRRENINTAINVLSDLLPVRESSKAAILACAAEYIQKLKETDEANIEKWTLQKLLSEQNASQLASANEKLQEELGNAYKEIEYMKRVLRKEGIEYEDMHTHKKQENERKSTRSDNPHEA
# Setting: whole 60-bp probe, lowest competitor level
Strand,fluorescence intensity [a.u.]
AAATTACTAAGTTTTCACGTGTAATACCCCGTATGA,781
AAATTACTAAGTTAGCACGTGTTTTACCCCGTATGA,2300
TTACTATTTGTGTCCCACGTGCTTTATTGTCTTATG,2610
GGAGAAACCAATGGGGGCGTGGGTAATGGAAACATT,78.2
GGGCCCGCAGTTTTGCACATGCGCGTTACTGGATCG,85.5
GGAGTTGATGTGTCTAGTGTGACAGGTTCATTTGCC,85.7
ATAAGCTTTTAGAAACACGTGATGGAAGAACCAGAG,4790
AAATTACTAAGTTGCCAGGTGGGTGACGCCGTATGA,60.9

# Single results of other studies
Compound,target,effect on,method,tested at,endpoint,result
CNC(=O)c1cc(C(=O)NC2CC2)cn(Cc2ccccc2)c1=O,"D(2) dopamine receptor (DRD2, Homo sapiens, UniProt P14416)",binding,radioligand binding,10 µM,inhibition,-2.98%

# Repeated from above (study 1):
together with,relative binding score [%]
(+)-ABA 1.4 µM,11.9
(+)-ABA 0.032 µM,-1.77
(+)-ABA 58 µM,19.8
(+)-ABA 17 µM,-3.16
(+)-ABA 4.8 µM,-10.5
(+)-ABA 0.11 µM,-0.798
